{"data": "Assay results of several laboratories", "POLB I260M": "DNA polymerase beta (POLB, Homo sapiens, UniProt P06746, I260M)", "CXCL8": "Interleukin-8 (CXCL8, Homo sapiens, UniProt P10145)", "POLB": "DNA polymerase beta (POLB, Homo sapiens, UniProt P06746)", "Eif4e": "Eukaryotic translation initiation factor 4E (Eif4e, Mus musculus, UniProt P63073)", "note": "± marks the error that the study gave.", "chain of UniProt P10145 (whole entry, looked up)": "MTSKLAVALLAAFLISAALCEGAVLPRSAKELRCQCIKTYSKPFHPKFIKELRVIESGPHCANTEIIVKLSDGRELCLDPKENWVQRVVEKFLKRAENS", "chain of UniProt P63073 (whole entry, looked up)": "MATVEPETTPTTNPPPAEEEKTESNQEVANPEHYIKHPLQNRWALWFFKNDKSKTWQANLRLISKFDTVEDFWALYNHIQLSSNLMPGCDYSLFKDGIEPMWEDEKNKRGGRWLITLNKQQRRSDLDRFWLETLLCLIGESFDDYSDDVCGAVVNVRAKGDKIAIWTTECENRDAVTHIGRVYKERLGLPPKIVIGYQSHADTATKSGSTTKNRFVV", "chain of UniProt P38169 (1-394, unmodified, looked up)": "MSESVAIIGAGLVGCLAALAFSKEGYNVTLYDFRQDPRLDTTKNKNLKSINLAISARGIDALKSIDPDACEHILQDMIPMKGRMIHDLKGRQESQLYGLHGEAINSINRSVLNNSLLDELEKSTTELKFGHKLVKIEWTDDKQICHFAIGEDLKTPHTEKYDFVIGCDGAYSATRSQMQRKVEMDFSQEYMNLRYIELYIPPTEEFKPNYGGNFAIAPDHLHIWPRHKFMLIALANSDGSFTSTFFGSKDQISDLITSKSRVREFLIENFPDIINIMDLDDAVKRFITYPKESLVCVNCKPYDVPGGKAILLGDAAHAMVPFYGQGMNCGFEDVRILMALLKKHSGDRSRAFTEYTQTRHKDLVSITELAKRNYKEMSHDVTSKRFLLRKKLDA", "chain of UniProt A0A109QYD3 (whole entry, unmodified, looked up)": "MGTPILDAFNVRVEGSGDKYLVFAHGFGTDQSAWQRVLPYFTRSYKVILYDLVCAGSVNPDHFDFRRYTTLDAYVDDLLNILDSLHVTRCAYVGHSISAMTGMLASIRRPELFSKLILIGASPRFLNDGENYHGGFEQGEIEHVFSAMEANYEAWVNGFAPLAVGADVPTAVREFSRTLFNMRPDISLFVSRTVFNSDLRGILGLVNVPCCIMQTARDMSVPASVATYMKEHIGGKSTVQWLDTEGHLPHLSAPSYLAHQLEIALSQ", "chain of UniProt Q16548 (whole entry, looked up)": "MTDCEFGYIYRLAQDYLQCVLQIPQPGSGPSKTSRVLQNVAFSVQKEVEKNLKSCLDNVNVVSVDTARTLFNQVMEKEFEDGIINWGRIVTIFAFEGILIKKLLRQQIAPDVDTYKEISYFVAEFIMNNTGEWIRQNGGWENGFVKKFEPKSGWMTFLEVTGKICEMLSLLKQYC", "chain of UniProt P20248 (whole entry, looked up)": "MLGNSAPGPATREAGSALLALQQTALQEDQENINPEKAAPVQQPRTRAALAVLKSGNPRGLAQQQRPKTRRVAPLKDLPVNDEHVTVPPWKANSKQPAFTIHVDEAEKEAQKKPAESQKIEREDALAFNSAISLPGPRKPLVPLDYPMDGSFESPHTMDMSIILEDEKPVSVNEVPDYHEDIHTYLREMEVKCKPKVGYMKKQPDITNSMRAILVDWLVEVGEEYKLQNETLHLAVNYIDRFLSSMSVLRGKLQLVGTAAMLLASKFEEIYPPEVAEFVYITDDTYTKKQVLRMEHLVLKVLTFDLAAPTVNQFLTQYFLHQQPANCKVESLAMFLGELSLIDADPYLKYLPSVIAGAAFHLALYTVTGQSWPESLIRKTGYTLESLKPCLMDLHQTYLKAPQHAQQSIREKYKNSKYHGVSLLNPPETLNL", "chain of UniProt O00214 (whole entry, looked up)": "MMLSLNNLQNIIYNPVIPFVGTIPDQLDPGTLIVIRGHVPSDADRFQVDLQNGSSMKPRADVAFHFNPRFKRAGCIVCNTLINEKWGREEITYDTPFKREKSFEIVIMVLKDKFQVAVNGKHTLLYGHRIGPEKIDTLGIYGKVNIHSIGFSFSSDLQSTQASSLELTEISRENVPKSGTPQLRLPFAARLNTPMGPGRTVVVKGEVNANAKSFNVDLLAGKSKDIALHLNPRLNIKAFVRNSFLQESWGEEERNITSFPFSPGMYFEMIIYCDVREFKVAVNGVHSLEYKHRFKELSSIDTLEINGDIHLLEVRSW"}
{"Structure (SMILES)": "C=CC(=O)Nc1cc(Nc2nccc(-n3ccc4nc(OC)ccc43)n2)c(OC)cc1N(C)CCN(C)C", "target": "EGFR (Homo sapiens, UniProt P00533, L858R/T790M)", "test": "binding, competition with immobilised ligand", "Kd": "5e-05 µM"}
{"Structure (SMILES)": "Cc1cn([C@H]2C[C@H](O)[C@@H](COP(=O)(O)OP(=O)(O)C(Cl)(Cl)P(=O)(O)O)O2)c(=O)[nH]c1=O", "target": "POLB I260M", "test": "substrate, single turnover kinetics", "conditions": "37 °C", "Kd": "20.9 ± 9.8 µM"}
{"Structure (SMILES)": "O=C(O)C1CC1C(=O)c1ccc(Cl)c(Cl)c1 (stereo not drawn)", "target": "Kynurenine 3-monooxygenase, residues 1-394 (Saccharomyces cerevisiae, UniProt P38169, R83M)", "test": "binding, flavin fluorescence", "conditions": "25 °C, R83M variant", "Kd": "3.2 ± 0.2 µM"}
{"Structure (SMILES)": "C[n+]1ccc(/C=N/NC(=O)c2cccc(C(=O)N/N=C/c3cc[n+](C)c4ccccc34)n2)c2ccccc21", "target": "MYC snap-back G4 DNA", "test": "binding, native ESI-MS", "test system": "100 mM trimethylammonium acetate", "conditions": "1 mM KCl", "Kd": "0.081 µM"}
{"Structure (SMILES)": "Nc1nc2c(ncn2[C@H]2C[C@H](O)[C@@H](COP(=O)(O)OP(=O)(O)C(F)(F)P(=O)(O)O)O2)c(=O)[nH]1", "target": "POLB I260M", "test": "nucleotide binding, substrate, single turnover kinetics", "conditions": "37 °C, dG misincorporation opposite A", "Kd": "1290 ± 397 µM"}
{"Structure (SMILES)": "CC(=O)N[C@@H]1[C@@H](O[C@@H]2O[C@H](C(=O)O)[C@@H](O[C@@H]3O[C@H](COS(=O)(=O)O)[C@@H](OS(=O)(=O)O)[C@H](O[C@@H]4O[C@H](C(=O)O)[C@@H](OS(=O)(=O)O)[C@H](OS(=O)(=O)O)[C@H]4OS(=O)(=O)O)[C@H]3NC(C)=O)[C@H](OS(=O)(=O)O)[C@H]2OS(=O)(=O)O)[C@H](OS(=O)(=O)O)[C@@H](COS(=O)(=O)O)O[C@H]1SCCOCCOCCSSCCOCCOCCS[C@@H]1O[C@H](COS(=O)(=O)O)[C@@H](OS(=O)(=O)O)[C@H](O[C@@H]2O[C@H](C(=O)O)[C@@H](O[C@@H]3O[C@H](COS(=O)(=O)O)[C@@H](OS(=O)(=O)O)[C@H](O[C@@H]4O[C@H](C(=O)O)[C@@H](OS(=O)(=O)O)[C@H](OS(=O)(=O)O)[C@H]4OS(=O)(=O)O)[C@H]3NC(C)=O)[C@H](OS(=O)(=O)O)[C@H]2OS(=O)(=O)O)[C@H]1NC(C)=O", "target": "CXCL8", "test": "ligand displacement, FP", "Kd": "0.012 µM"}
{"Structure (SMILES)": "CC1=C[C@@H](O/C=C2/C(=O)O[C@H]3c4ccccc4C[C@@H]23)OC1=O", "target": "RMS3 (Lathyrus oleraceus, UniProt A0A109QYD3, S96C)", "test": "binding, fluorescence", "Kd": "676 µM"}
{"Structure (SMILES)": "Nc1nc2c(ncn2[C@H]2C[C@H](O)[C@@H](COP(=O)(O)OP(=O)(O)[C@H](F)P(=O)(O)O)O2)c(=O)[nH]1", "target": "POLB", "test": "substrate, quench-flow kinetics", "conditions": "pH 8.0, 37 °C, incorporation opposite C in gapped DNA", "Kd": "6.2 ± 2.2 µM"}
{"Structure (SMILES)": "C[n+]1cn([C@@H]2O[C@H](COP(=O)(O)OP(=O)([O-])C(F)(F)P(=O)(O)O)[C@@H](O)[C@H]2O)c2nc(N)nc(O)c21", "target": "Eukaryotic translation initiation factor 4E, residues 28-217 (Eif4e, Mus musculus, UniProt P63073)", "test": "binding, fluorescence quenching titration", "conditions": "pH 7.2, 20 °C", "Kd": "0.00868 µM"}
{"Structure (SMILES)": "Nc1nc2c(ncn2[C@H]2C[C@H](O)[C@@H](COP(=O)(O)OP(=O)(O)CP(=O)(O)O)O2)c(=O)[nH]1", "target": "POLB I260M", "test": "nucleotide binding, substrate, single turnover kinetics", "conditions": "37 °C, dG misincorporation opposite A", "Kd": "515 ± 194 µM"}
{"Structure (SMILES)": "Nc1nc2c(ncn2[C@H]2C[C@H](O)[C@@H](COP(=O)(O)OP(=O)(O)[C@H](Cl)P(=O)(O)O)O2)c(=O)[nH]1", "target": "DNA polymerase beta (POLB, Homo sapiens, UniProt P06746, R183A)", "test": "substrate, pre-steady-state kinetics", "conditions": "incorporation opposite dC in gapped DNA", "Kd": "110 ± 3 µM"}
{"Structure (SMILES)": "CC[C@H](C)[C@@H]1NC(=O)[C@H](C)NC(=O)[C@H](C)NC(=O)[C@H]([C@@H](C)O)NC(=O)[C@H](Cc2ccccc2)NC(=O)[C@@H]2CSSC[C@@H]3NC(=O)[C@H](C(C)C)NC(=O)[C@H](C)NC(=O)[C@H](CO)NC(=O)[C@H](CCCCN)NC(=O)[C@@H]4CSSC[C@H](NC(=O)[C@H](CO)NC(=O)[C@H](CCC(=O)O)NC(=O)CNC(=O)[C@H](CSSC[C@H](NC(=O)CNC1=O)C(=O)N[C@@H](CO)C(=O)N4)NC(=O)[C@@H]1CCCN1C(=O)[C@H](Cc1ccccc1)NC(=O)CNC(=O)[C@H](CC(N)=O)NC(=O)[C@H](CCCCN)NC(=O)[C@H](Cc1ccc(O)cc1)NC3=O)C(=O)N[C@@H](C(C)C)C(=O)N[C@@H](Cc1ccc(O)cc1)C(=O)N[C@@H](CC(C)C)C(=O)N1CCC[C@H]1C(=O)N2", "target": "POPC/POPE lipid membrane", "test": "membrane binding, surface plasmon resonance", "test system": "POPC/POPE 80:20 vesicles", "conditions": "pH 7.4", "Kd": "4.8 ± 0.34 µM"}
{"Structure (SMILES)": "Nc1nc2c(ncn2C2CC(O)C(COP(=O)(O)OP(=O)(O)C(Cl)P(=O)(O)O)O2)c(=O)[nH]1 (mixture of isomers)", "target": "POLB", "test": "nucleotide binding, substrate, single turnover kinetics", "conditions": "37 °C, dG misincorporation opposite A", "Kd": "1000 ± 500 µM"}
{"Structure (SMILES)": "CC(C)CCCC(C)C1CCC2C3CC=C4CC(OC(=O)CCC(=O)NCCCCCCNc5ncnc6c5ncn6[C@@H]5O[C@H](COP(=O)(O)OP(=O)([O-])OP(=O)(O)OC[C@H]6O[C@@H](n7c[n+](C)c8c(O)nc(N)nc87)[C@H](O)[C@@H]6O)[C@@H](O)[C@H]5O)CCC4(C)C3CCC12C (stereo partly drawn)", "target": "Eif4e", "test": "cap analogue binding, pyrene fluorescence competition", "conditions": "20 °C", "Kd": "0.051 µM"}
{"Structure (SMILES)": "CC(C)(C)Nc1c(F)c(S(N)(=O)=O)c(F)c(F)c1S(=O)(=O)CCc1ccccc1", "target": "CA2 (Homo sapiens, UniProt P00918, A65S/F130A/I91T/L203N/N67K/V134S)", "conditions": "pH 7", "Kd": "0.077 µM"}
{"Structure (SMILES)": "CC[C@H](C)[C@H](NC(=O)[C@H](Cc1c[nH]c2ccccc12)NC(=O)[C@@H](NC(=O)[C@H](CCC(=O)O)NC(=O)[C@@H]1CCCN1C(=O)[C@H](CCCNC(=N)N)NC(C)=O)[C@@H](C)CC)C(=O)N[C@@H](C)C(=O)N[C@@H](CCC(N)=O)C(=O)N[C@@H](CCC(=O)O)C(=O)N[C@@H](CC(C)C)C(=O)N[C@@H](CCCNC(=N)N)C(=O)N[C@@H](CCCNC(=N)N)C(=O)N[C@@H](C)C(=O)NCC(=O)N[C@@H](CCCCN)C(=O)N[C@H](C(=O)N[C@@H](CC(C)C)C(=O)N[C@@H](CC(N)=O)C(=O)N[C@@H](C)C(=O)N[C@@H](Cc1ccc(O)cc1)C(=O)N[C@@H](Cc1ccc(O)cc1)C(=O)N[C@@H](C)C(=O)N[C@@H](CCCNC(=N)N)C(N)=O)C(C)C", "target": "Bcl-2-related protein A1 (Homo sapiens, UniProt Q16548)", "test": "binding, FP", "conditions": "pH 7.8", "Kd": "~0.047 µM"}
{"Structure (SMILES)": "CC[C@H](C)[C@@H]1NC(=O)[C@H](C)NC(=O)[C@H](C)NC(=O)[C@H]([C@@H](C)O)NC(=O)[C@H](Cc2ccccc2)NC(=O)[C@@H]2CSSC[C@@H]3NC(=O)[C@H](C(C)C)NC(=O)[C@H](CCCCN)NC(=O)[C@H](CO)NC(=O)[C@H](CCCCN)NC(=O)[C@@H]4CSSC[C@H](NC(=O)[C@H](CO)NC(=O)[C@H](CCC(=O)O)NC(=O)CNC(=O)[C@H](CSSC[C@H](NC(=O)CNC1=O)C(=O)N[C@@H](CO)C(=O)N4)NC(=O)[C@@H]1CCCN1C(=O)[C@H](Cc1ccccc1)NC(=O)CNC(=O)[C@H](CC(N)=O)NC(=O)[C@H](CCCCN)NC(=O)[C@H](Cc1ccc(O)cc1)NC3=O)C(=O)N[C@@H](C(C)C)C(=O)N[C@@H](Cc1ccc(O)cc1)C(=O)N[C@@H]([C@@H](C)CC)C(=O)N1CCC[C@H]1C(=O)N2", "target": "POPC/POPE lipid membrane", "test": "membrane binding, surface plasmon resonance", "test system": "POPC/POPE 80:20 vesicles", "conditions": "pH 7.4", "Kd": "5.88 ± 0.07 µM"}
{"Structure (SMILES)": "CC(=O)N[C@@H]1[C@@H](O[C@@H]2O[C@H](C(=O)O)[C@@H](O[C@@H]3O[C@H](COS(=O)(=O)O)[C@@H](OS(=O)(=O)O)[C@H](O[C@@H]4O[C@H](C(=O)O)[C@@H](OS(=O)(=O)O)[C@H](OS(=O)(=O)O)[C@H]4OS(=O)(=O)O)[C@H]3NC(C)=O)[C@H](OS(=O)(=O)O)[C@H]2OS(=O)(=O)O)[C@H](OS(=O)(=O)O)[C@@H](COS(=O)(=O)O)O[C@H]1N=[N+]=[N-]", "target": "CXCL8", "test": "isothermal titration calorimetry", "conditions": "25 °C, protein 10 µM", "Kd": "0.034 µM"}
{"Structure (SMILES)": "CC[C@H](C)[C@H](NC(=O)[C@H](CC(C)C)NC(=O)[C@H](CCCNC(=N)N)NC(=O)c1ccc(CN2CCN(C)CC2)cc1)C(=O)N[C@@H](Cc1ccccc1)C(N)=O", "target": "Cyclin-A2 (CCNA2, Homo sapiens, UniProt P20248)", "test": "binding, tryptophan fluorescence titration", "conditions": "pH 8.0, 25 °C, expressed without chaperones", "Kd": "3.21 µM"}
{"Structure (SMILES)": "Cc1csc(CCCNc2nc3c(c(=O)[nH]2)[n+](C)cn3C2OC(COP(=O)(O)OP(=O)([O-])OP(=O)(O)OCC3OC(n4cnc5c(=O)[nH]c(N)nc54)C(O)C3O)C(O)C2O)n1 (stereo not drawn)", "target": "Eif4e", "test": "differential scanning fluorimetry", "Kd": "7.99 µM"}
{"Structure (SMILES)": "CC#Cc1cc2c3c(c1C#CC)O[C@H](CO)[C@H](O)[C@@H]3OC2", "target": "Galectin-8 (LGALS8, Homo sapiens, UniProt O00214)", "test": "cell-free assay, FP", "Kd": "> 2000 µM"}
{"note": "Excerpt of the above:"}
{"Structure (SMILES)": "CC1=C[C@@H](O/C=C2/C(=O)O[C@H]3c4ccccc4C[C@@H]23)OC1=O", "target": "RMS3 (Lathyrus oleraceus, UniProt A0A109QYD3, S96C)", "test": "binding, fluorescence", "Kd": "676 µM"}
